Published values of several laboratories.
Compare with care: the assays were run in different laboratories.
Organism: Mycobacterium tuberculosis

With `N#Cc1cc2cccnc2nc1N1CCN(CC(=O)Nc2cccc([N+](=O)[O-])c2)CC1` the MIC was 29.9 µM (microplate Alamar Blue; H37Rv).
The MIC of `O=C(OCc1ccccc1)[C@@H]1COC(c2ccncc2)=N1` is reported as > 50 µM (H37Rv; 168 h).
With `Cc1c(Cc2ccc(S(C)(=O)=O)cc2)c(=O)n2c([nH]c3ccccc32)c1C#N` the MIC was 1 µg/mL (microbial growth, resazurin; H37RV).
`Cc1cc(=O)[nH]c2c1C(=O)c1c(CCCCCCCC(C)C)cc(=O)[nH]c1C2=O` has an MIC of 0.07 µg/mL (Microplate Alamar Blue; H37Rv; replicating bacteria).
The MIC of `COc1ccc(-c2ccc(C(=O)NCc3c4c(c(C)[nH]c3=O)CCCC4)cc2)cc1` is reported as 25 µg/mL (microbial growth, resazurin; H37RV).
The MIC of `O=C1c2ccccc2C(=O)c2c1oc(NC1CCCCC1)c2-c1ccc([N+](=O)[O-])o1` is reported as 20 µM (resazurin microplate; H37Rv; 7 days + 24 h).
The MIC of `CCCCCCCCCCCC(=O)NS(=O)(=O)OC[C@H]1O[C@@H](n2cnc3c(N)ncnc32)[C@H](O)[C@@H]1O` is reported as 3.13 to 25 µM (MDR and XDR strains).
`Cc1c2c([nH]c(=O)c1CNC(=O)c1ccc(Cl)nc1)CCCC2` has an MIC of > 50 µg/mL (microbial growth, resazurin; H37RV).
`CC(NC(=O)c1cc2ccccc2[nH]1)C12CC3CC(CC(C3)C1)C2` (stereo not drawn) has an MIC of 2 µg/mL (microplate alamarBlue; H37Rv).
The MIC of `O=c1c2ccccc2[se]n1C1CCCC1` is reported as 25 µg/mL (microbial growth, resazurin; H37RV).
`COc1cc(OC)cc(C(=O)NCc2c(C)c3c([nH]c2=O)CCCC3)c1` gave an MIC of 24.1 µg/mL (microbial growth, resazurin; H37RV).
With `CC(C)=CCC/C(C)=C/CNCCNC1C2CC3CC(C2)CC1C3` (stereo not drawn) the MIC was ≤ 0.39 µg/mL (microbial growth, resazurin; ATCC35801 ERDMAN).
The MIC of `Cc1[nH]c(=O)c(CNC(=O)c2ccc([N+](=O)[O-])s2)c2c1CCCC2` is reported as 5.4 µg/mL (microbial growth, resazurin; H37RV).
With `CC(C)(C)NC=C1C(=O)C(=O)c2ccccc2C1=O` the MIC was 62 to 124 µM (resazurin microplate; H37Rv; 7 days + 24 h).
The MIC of `N#Cc1cc2cccnc2nc1N1CCN(C(=O)CNc2ccccc2F)CC1` is reported as 64 µM (microplate Alamar Blue; H37Rv).
The MIC of `CC(NC(=O)c1cc2ccc(Br)cc2[nH]1)C12CC3CC(CC(C3)C1)C2` (stereo not drawn) is reported as 0.25 µg/mL (microplate alamarBlue; H37Rv).
`CC(C)(C)Nc1oc2c(c1-c1ccc(Cl)cc1)C(=O)c1ccccc1C2=O` has an MIC of > 147 µM (resazurin microplate; H37Rv; 7 days + 24 h).
With `Cc1[nH]c(=O)c(CNC(=O)c2cn[nH]c2)c2c1CCCC2` the MIC was 14 µg/mL (microbial growth, resazurin; H37RV).
`Cc1c(Cc2ccc(-c3ccccn3)cc2)c(=O)n2c([nH]c3ccccc32)c1C#N` has an MIC of 4 µg/mL (microbial growth, resazurin; H37RV).
With `N#Cc1cc2cccnc2nc1N1CCN(CC(=O)Nc2cccc(C(F)(F)F)c2)CC1` the MIC was 28.4 µM (microplate Alamar Blue; H37Rv).
`COc1cc(C)cc(-c2ccc(C(=O)NCc3c4c(c(C)[nH]c3=O)CCCC4)cc2)c1` has an MIC of 7.2 µg/mL (microbial growth, resazurin; H37RV).
With `O=C(NC1CCCCCCC1)c1ccc2ccccc2c1` the MIC was ≤ 4 µg/mL (microbial growth, resazurin; H37RV).
For `CC(C)(C)Nc1oc2c(c1C1CCN(C(=O)OC(C)(C)C)CC1)C(=O)c1ccccc1C2=O`, the MIC was > 147 µM (resazurin microplate; H37Rv; 7 days + 24 h).
`O=C(c1cc2c(F)cc(F)cc2[nH]1)N1CCN(C(=O)C23CC4CC(CC(C4)C2)C3)CC1` gave an MIC of > 32 µg/mL (microplate alamarBlue; H37Rv).
With `[N-]=[N+]=Nc1ccc(NC(=O)c2ccccc2[Se]C#Cc2ccccc2)cc1` the MIC was ≥ 50 µg/mL (microbial growth, resazurin; H37RV).
With `COc1cccc(Nc2ccc3nonc3c2N)c1` the MIC was 250 µM (microbial growth; H37RV).
For `O=C1c2ccccc2C(=O)c2c1oc(NC1CCCCC1)c2-c1ccc(Cl)cc1`, the MIC was 39 µM (resazurin microplate; H37Rv; 7 days + 24 h).
`CC[C@@H](CO)NCCN[C@@H](CC)CO` gave an MIC of 7.6 µM (microbial growth, resazurin; H37RV).
For `COc1ccc(-n2nnc3c2CCC2(C=Cc4cc(Cl)c(C)cc4O2)C3)cc1` (stereo not drawn), the MIC was 6.25 µg/mL (microbial growth, resazurin; H37RV; 7 days).
For `N#Cc1cc2cccnc2nc1N1CCN(C(=O)CNc2ccc(Br)cc2[N+](=O)[O-])CC1`, the MIC was > 101 µM (microplate Alamar Blue; H37Rv).
With `O=C(O)c1cn(C2CC2)c2cc(N3CCNCC3)c(F)cc2c1=O` the MIC was 9.4 µM (microbial growth, resazurin; H37RV).
With `CCCCNc1oc2c(c1-c1ccc(Cl)cc1)C(=O)c1ccccc1C2=O` the MIC was 84 µM (resazurin microplate; H37Rv; 7 days + 24 h).
For `N#Cc1cc2cccnc2nc1N1CCN(CC(=O)Nc2ccccc2)CC1`, the MIC was 33.6 µM (microplate Alamar Blue; H37Rv).
With `Clc1ccc2c(c1)C=CC1(CCc3c(nnn3-c3ccccc3)C1)O2` (stereo not drawn) the MIC was 6.25 µg/mL (microbial growth, resazurin; H37RV; 7 days).
For `Cc1c2c([nH]c(=O)c1CNC(=O)c1ccc(F)nc1)CCCC2`, the MIC was > 50 µg/mL (microbial growth, resazurin; H37RV).
`Cc1c(Cc2ccccn2)c(=O)n2c([nH]c3ccccc32)c1C#N` has an MIC of 4 µg/mL (microbial growth, resazurin; H37RV).
`N#Cc1cc2cccnc2nc1N1CCN(CC(=O)Nc2ccc([N+](=O)[O-])cc2)CC1` gave an MIC of 59.8 µM (microplate Alamar Blue; H37Rv).
For `CCc1nc2ccc(Cl)cn2c1C(=O)NCc1ccc(S(F)(F)(F)(F)F)cc1`, the MIC was 0.01 µM (microbial growth, resazurin; H37RV).
For `Cc1c(Cc2ccc(F)c(F)c2F)c(=O)n2c([nH]c3ccccc32)c1C#N`, the MIC was 0.5 µg/mL (microbial growth, resazurin; H37RV).
`Cc1cc2c(cc1Cl)C=CC1(CCc3c(nnn3Cc3ccccc3)C1)O2` (stereo not drawn) gave an MIC of 25 µg/mL (microbial growth, resazurin; H37RV; 7 days).
For `Cc1[nH]c(=O)c(CNC(=O)c2ccc(Br)o2)c2c1CCCC2`, the MIC was 3.4 µg/mL (microbial growth, resazurin; H37RV).
With `O=c1c2ccccc2[se]n1-c1ccccc1F` the MIC was 25 µg/mL (microbial growth, resazurin; H37RV).
For `N#Cc1cc2cccnc2nc1N1CCN(C(=O)CCl)CC1`, the MIC was 79.2 µM (microplate Alamar Blue; H37Rv).
`Cc1cc2c(cc1Cl)C=CC1(CCc3c(nnn3-c3ccc(Cl)cc3)C1)O2` (stereo not drawn) gave an MIC of 3.12 µg/mL (microbial growth, resazurin; H37RV; 7 days).
For `N#Cc1cc2cccnc2nc1N1CCN(C(=O)CNc2cccc(Cl)c2)CC1`, the MIC was 123 µM (microplate Alamar Blue; H37Rv).
`Cc1ccc(-n2nnc3c2CCC2(C=Cc4cc(Cl)c(C)cc4O2)C3)cc1` (stereo not drawn) has an MIC of > 25 µg/mL (MABA; H37Rv; 7 days).
`COc1cccc2[nH]c(C(=O)NC(C)C34CC5CC(CC(C5)C3)C4)cc12` (stereo not drawn) has an MIC of 1 µg/mL (microplate alamarBlue; H37Rv).
The MIC of `Cc1c(Cc2ccccc2)c(=O)n2c([nH]c3ccccc32)c1C#N` is reported as 8 µg/mL (microbial growth, resazurin; H37RV).

For quick reference, copied from above:
The MIC of `CC(NC(=O)c1cc2ccc(Br)cc2[nH]1)C12CC3CC(CC(C3)C1)C2` (stereo not drawn) is reported as 0.25 µg/mL (microplate alamarBlue; H37Rv).
The MIC of `Cc1c(Cc2ccccc2)c(=O)n2c([nH]c3ccccc32)c1C#N` is reported as 8 µg/mL (microbial growth, resazurin; H37RV).
`Cc1ccc(-n2nnc3c2CCC2(C=Cc4cc(Cl)c(C)cc4O2)C3)cc1` (stereo not drawn) has an MIC of > 25 µg/mL (MABA; H37Rv; 7 days).
With `CC(C)=CCC/C(C)=C/CNCCNC1C2CC3CC(C2)CC1C3` (stereo not drawn) the MIC was ≤ 0.39 µg/mL (microbial growth, resazurin; ATCC35801 ERDMAN).
